Measurements from different studies.
Each line is one published result; not all experiments were run side by side. ± marks the error that the study gave.
Chain of UniProt P53778 (whole entry, looked up): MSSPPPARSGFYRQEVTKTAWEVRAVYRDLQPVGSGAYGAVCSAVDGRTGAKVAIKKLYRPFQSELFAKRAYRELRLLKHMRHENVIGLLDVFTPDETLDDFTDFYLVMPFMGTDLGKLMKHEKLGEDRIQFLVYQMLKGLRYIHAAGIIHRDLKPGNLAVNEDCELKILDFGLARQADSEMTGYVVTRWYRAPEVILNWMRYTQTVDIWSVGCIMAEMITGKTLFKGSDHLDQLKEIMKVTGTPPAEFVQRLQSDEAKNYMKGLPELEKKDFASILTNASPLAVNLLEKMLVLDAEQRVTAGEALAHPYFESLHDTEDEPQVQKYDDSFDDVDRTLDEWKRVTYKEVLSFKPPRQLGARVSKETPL
Chain of UniProt P47211 (whole entry, looked up): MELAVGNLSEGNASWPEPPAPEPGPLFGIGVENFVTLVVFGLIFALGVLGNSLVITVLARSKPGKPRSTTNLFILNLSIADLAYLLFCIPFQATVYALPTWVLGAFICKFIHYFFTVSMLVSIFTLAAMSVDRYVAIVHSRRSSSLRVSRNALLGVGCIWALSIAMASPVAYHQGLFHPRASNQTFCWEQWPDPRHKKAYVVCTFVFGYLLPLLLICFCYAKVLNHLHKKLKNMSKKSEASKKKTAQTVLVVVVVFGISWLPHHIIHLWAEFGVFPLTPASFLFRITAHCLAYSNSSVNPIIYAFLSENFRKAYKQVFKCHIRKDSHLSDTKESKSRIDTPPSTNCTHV
Chain of UniProt O95136 (whole entry, looked up): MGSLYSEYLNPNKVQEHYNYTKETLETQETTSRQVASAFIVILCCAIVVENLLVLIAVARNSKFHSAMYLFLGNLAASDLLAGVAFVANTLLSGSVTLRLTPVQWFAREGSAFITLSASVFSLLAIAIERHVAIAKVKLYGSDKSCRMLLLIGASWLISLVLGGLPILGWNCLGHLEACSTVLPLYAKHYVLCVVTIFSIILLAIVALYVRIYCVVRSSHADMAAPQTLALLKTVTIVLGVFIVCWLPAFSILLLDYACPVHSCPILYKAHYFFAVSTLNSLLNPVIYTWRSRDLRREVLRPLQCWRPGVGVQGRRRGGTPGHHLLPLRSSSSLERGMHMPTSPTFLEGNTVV
Chain of UniProt Q12933 (whole entry, looked up): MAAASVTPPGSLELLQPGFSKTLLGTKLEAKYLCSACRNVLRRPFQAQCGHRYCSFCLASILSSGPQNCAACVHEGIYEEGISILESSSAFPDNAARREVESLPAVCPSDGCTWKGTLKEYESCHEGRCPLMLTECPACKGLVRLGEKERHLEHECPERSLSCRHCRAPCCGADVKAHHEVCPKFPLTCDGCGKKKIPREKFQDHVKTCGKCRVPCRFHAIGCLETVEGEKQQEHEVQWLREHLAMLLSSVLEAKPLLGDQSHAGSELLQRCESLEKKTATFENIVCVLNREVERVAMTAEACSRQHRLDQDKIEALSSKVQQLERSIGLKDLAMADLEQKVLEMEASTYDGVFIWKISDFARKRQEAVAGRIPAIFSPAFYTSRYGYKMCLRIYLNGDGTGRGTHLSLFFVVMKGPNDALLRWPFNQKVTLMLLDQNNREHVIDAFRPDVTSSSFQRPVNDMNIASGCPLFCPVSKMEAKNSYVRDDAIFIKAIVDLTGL

For `O=c1cc(-c2ccc(O)c(O)c2)oc2cc(O)cc(O)c12`, “urinary excreted amount, total” read 29.2 ± 6.09 ng (male Sprague-Dawley rat, lean; oral, 100 mg/kg of neohesperidin, 12 to 24 h, after β-glucuronidase/sulfatase hydrolysis).
`O=C(O)CCCOc1ccc(F)cc1-c1cc(-c2ccccc2C(F)(F)F)n(-c2ccccc2)n1` — result for “mean corpuscular haemoglobin”: 19.7 pg (Crl:CD(SD) rats, female, blood; iv, 25 µg/kg, 14 days).
`COc1ccc(-c2c(-c3ccc(C#N)c(F)c3)nc(N3CCC(N)CC3)n(C)c2=O)cc1F`: “serious adverse event incidence” 2% (measured: Urticaria; human patients; oral, dose not given, dose escalation, NG).
With `COc1ccc(N2C(=O)N(c3c(C)cccc3Cl)Cc3cnc(Nc4ccc(C5CCN(C)CC5)cc4OC)nc32)nc1` the inhibition was 2.79% (MAPK12 (Homo sapiens, UniProt P53778); kinase activity, inhibitor; 0.5 µM, kinase P38-GAMMA).
`COc1cc2c(Oc3ccc4[nH]c(C)cc4c3F)ccnc2cc1OCC1(N)CC1` — result for “grade 3 ALP elevation”: 0% (paediatric recurrent refractory sarcoma; 10 mg).
`CO[C@H]1C[C@@H]2CC[C@@H](C)[C@@](O)(O2)C(=O)C(=O)N2CCCC[C@H]2C(=O)O[C@H]([C@H](C)C[C@@H]2CC[C@@H](OC(=O)NCCOCCOCCOCCOCCOCCOCCOCCOCCC(=O)N3CCc4cc(Cn5nc(-c6ccc7oc(N)nc7c6)c6c(N)ncnc65)ccc4C3)[C@H](OC)C2)C[C@@H](O)[C@H](C)/C=C(\C)[C@@H](O)[C@@H](OC)C(=O)[C@H](C)C[C@H](C)/C=C/C=C/C=C/1C` has a mucositis incidence of 66.7% (patients with advanced solid tumours; intravenous, 6 mg weekly, any grade).
For `O=c1ccc2ncc(=O)n3c2n1C[C@H]3CN1CCC(NCc2cc3c(cn2)OCCC3)CC1`, the tlag was 0 h (healthy human participants, plasma; oral, 1500 mg, median, compound alone).
`CC[C@H](C)[C@H](NC(=O)[C@H](Cc1ccccc1)NC(=O)[C@H](CCC(=O)O)NC(=O)[C@H](CCCNC(=N)N)NC(=O)[C@H](C)NC(=O)[C@H](C)NC(=O)[C@H](CCC(N)=O)NC(=O)[C@H](CCC(=O)O)NC(=O)[C@H](CCC(=O)O)NC(=O)[C@H](CC(C)C)NC(=O)[C@H](Cc1ccc(O)cc1)NC(=O)[C@H](CO)NC(=O)[C@H](CO)NC(=O)[C@@H](NC(=O)[C@H](CC(=O)O)NC(=O)[C@H](CO)NC(=O)[C@@H](NC(=O)[C@H](Cc1ccccc1)NC(=O)[C@@H](NC(=O)CNC(=O)[C@H](CCC(=O)O)NC(=O)[C@H](C)NC(=O)CCc1c[nH]cn1)[C@@H](C)O)[C@@H](C)O)C(C)C)C(=O)N[C@@H](C)C(=O)N[C@@H](Cc1c[nH]c2ccccc12)C(=O)N[C@@H](CC(C)C)C(=O)N[C@H](C(=O)N[C@@H](CCCNC(=N)N)C(=O)NCC(=O)N[C@@H](CCCNC(=N)N)C(=O)N[C@@H](CCCCNC(=O)COCCOCCNC(=O)COCCOCCNC(=O)CC[C@H](NC(=O)CCCCCCCCCCCCCCCCC(=O)O)C(=O)O)C(=O)NCC(=O)NCC(=O)N[C@@H](CO)C(=O)N[C@@H](CCCCNc1c(NCCCCCN(O)C(=O)CCC(=O)NCCCCCN(O)C(=O)CCC(=O)NCCCCCN(O)C(C)=O)c(=O)c1=O)C(=O)O)C(C)C` [zirconium-89 labelled] gave a tissue uptake of 5.14 %ID/g (ex vivo gamma counting; rat, skin at injection site; subcutaneous, 3 nmol/kg, 4 h).
`CN1CCN(c2cc(-c3ccncc3)c(-c3ccc4ccccc4c3)nn2)CC1` has an inhibition of 8.7% (S1PR2 (Homo sapiens, UniProt O95136); antagonist, FLIPR; 10 µM).
Under “grade 5 any TEAE incidence”, `Cc1cc(C)c(CNC(=O)c2cc(Cl)c3c(c2C)O[C@@](C)([C@H]2CC[C@H](N(C)C)CC2)O3)c(=O)[nH]1` is recorded as 0% (relapsed/refractory NHL patients; dose not given, all TEAEs, safety set).
`COc1cc(Nc2ncc(F)c(Nc3ccc4c(n3)NC(=O)C(C)(C)O4)n2)cc(OC)c1OC` has an IC50 of over 10 µM (GALR1 (Homo sapiens, UniProt P47211)).
`CCN(CCO)CCCC(C)Nc1ccnc2cc(Cl)ccc12` (stereo not shown) — result for “patients with adverse event”: 14% (measured: Irritability grade 1; newly diagnosed glioblastoma patients; oral, 400 mg/dose, with radiotherapy and temozolomide).
Under “log2 fold change”, `CC[C@H](C)[C@@H]1NC(=O)[C@@H]2CCCN2C(=O)[C@H](CC(C)C)NC(=O)[C@H](CC(C)C)NC(=O)CNC(=O)[C@@H](NC(=O)[C@@H](NC(=O)[C@H](CC(=O)O)NC(=O)CNC(=O)[C@@H](NC(=O)[C@H](C)NC(=O)CNC(=O)[C@H](CCCCN)NC(=O)[C@H](CC(C)C)NC(=O)[C@H](CC(C)C)NC(=O)[C@H](CCCCN)NC(=O)CNC(=O)[C@@H](NC(=O)[C@@H](N)CC(C)C)C(C)C)C(C)C)C(C)C)CSSC[C@@H](C(=O)O)NC1=O` is recorded as -1.68 (RNA-seq, measured: Iigp1 mRNA; mouse traumatic brain injury, frontal cortex and hippocampus; dose not given; relative to: TBI plus compound vs TBI).
The AUC(0-inf) of `C[C@]1(CO)Cc2ncn(-c3ccc(C#N)c(Cl)c3)c2C(=O)O1` is reported as 23.7 µM·h (human, Chinese, plasma; 80 mg single dose, geometric mean).
With `CCc1ccc(CC/C=C/c2ccc3c(c2)C(=O)CC3)cc1` the potassium was 4.47 mM (Sprague-Dawley rat, male, serum; oral, 30 mg/kg/day, 14 days).
With `C[C@H]1CN(c2n[nH]c3nc(N[C@H]4CC[C@H](NS(=O)(=O)CCC(F)(F)F)CC4)ncc23)CCO1` the remaining binding was 1.02 (TNF receptor-associated factor 2 (Homo sapiens, UniProt Q12933); Kinobeads competition, measured: TRAF2; 0.032 µM, unit not given; relative to: vehicle).
Under “cis isomer at photostationary state”, `O=C1CN=C(c2ccccc2)c2cc(/N=N/c3ccc(S(=O)(=O)O)cc3)ccc2N1` is recorded as 88% (HPLC; DMSO; 50 µM, added: 365 nm irradiation).
`N#C[C@@H]1CC(F)(F)CN1C(=O)CNC(=O)c1ccnc2ccc(OCCCN3CCN(C(=O)CN4CCN(CC(=O)[O-])CCN(CC(=O)[O-])CC4)CC3)cc12.[18F-].[Al+3]` has a tissue uptake of 0.7 ± 0.09 %ID/g (healthy rat, kidney; iv, 2 h).
Under “patients with adverse event”, `CN1CC[C@@H](c2c(O)cc(O)c3c(=O)cc(-c4ccc(C(F)(F)F)cc4Cl)oc23)[C@@H]1CO` is recorded as 0% (measured: Hypotension; relapsed B-cell malignancies or AML; oral, 50 mg, grade 3-4, continuous dosing).
